Published values pooled from the literature.
Compare with care: the assays were run in different laboratories. Numbers after ± are the reported error.

Structure (SMILES) | assay | system | conditions | how to read | measurement | result
CNC(=O)c1ccc(-c2cnc3ncc(Cc4ccc5ncccc5c4)n3n2)cc1F | – | other cancer patients | oral, 600 mg twice daily, all grades RP2D expansion | – | ALT increased incidence | 6%
O=C(O)C[C@H](O)C[C@H](O)/C=C/c1c(C2CC2)nc2ccccc2c1-c1ccc(F)cc1 | – | FVB wild-type mouse, plasma | oral, 5 mg/kg, geometric mean, added: rifampin 20 mg/kg oral | – | AUC(0-12h) | 0.359 µM·h
Cn1c(C(F)(F)F)cc(=O)n(-c2cc(Oc3cccnc3OCC(=O)O)c(Cl)cc2F)c1=O | – | Crl:CD1(ICR) mice, male, plasma | oral diet, 5 ppm in diet, day 1, 90-day toxicity study | – | Cmax | 16.2 ng/mL
O=S(=O)(O)Oc1cccc(O)c1O | – | human, cerebrospinal fluid | concentration not given, mean | – | CSF concentration | 3.8 nM
Cn1cc(Nc2nccc(-c3ccc4c(c3)CN(C3COC3)CC[C@H]4NC(=O)c3cn(C(C)(C)C)nn3)n2)cn1 | item: B cell count | human, clinical trial, whole blood | 150 mg twice daily, follow-up | – | percent change from baseline | -2.96%
CC(Sc1nc2ccccc2[nH]1)C(=O)Nc1ccc(S(N)(=O)=O)cc1 (centres unmarked) | – | octanol/buffer | pH 11 | – | logP | 1.59
CC(C(=O)NCC(=O)NCC(CNC(=O)CNC(=O)C(C)N1CCN(CC(=O)[O-])CCN(CC(=O)[O-])CCN(CC(=O)[O-])CC1)(CNC(=O)CNC(=O)C(C)N1CCN(CC(=O)[O-])CCN(CC(=O)[O-])CCN(CC(=O)[O-])CC1)CNC(=O)CNC(=O)C(C)N1CCN(CC(=O)[O-])CCN(CC(=O)[O-])CCN(CC(=O)[O-])CC1)N1CCN(CC(=O)[O-])CCN(CC(=O)[O-])CCN(CC(=O)[O-])CC1.[Gd+3].[Gd+3].[Gd+3].[Gd+3] (centres unmarked) | – | cynomolgus monkey, kidney medulla | dose not given, day 5 | – | lanthanide concentration | 16 ± 4.2 nmol/g
C[C@@H]1[C@H](c2c(F)ccc(F)c2F)C[C@H](NC(=O)c2cnc3c(c2)C[C@@]2(C3)C(=O)Nc3ncccc32)C(=O)N1CC(F)(F)F | – | human patients, plasma | oral, population PK model, added: famotidine | relative to: no famotidine | decrease in relative bioavailability | 15%
CC(C)n1c(Nc2cccnc2)nc2cnc(Nc3ccc(N4CCN(C)CC4)cc3)nc21 | item: antithrombin III antibodies elevated | healthy human, male | oral, dose not given, CTCAE grade 1-3 | – | subjects with TEAE | 19%
Cc1cc(NC(=O)c2cccc(NC(=O)/C=C/CN(C)C)c2)ccc1Nc1nccc(-c2cccnc2)n1 | metabolic stability | Wistar rat, male, primary hepatocytes | 1 µM, 180 min | – | compound remaining | 33.5%
C[C@H]1CN(C(=O)CC#N)[C@]12CCN(c1ncnc3[nH]ccc13)C2 | – | healthy human | oral, 1.5 mg, single dose | – | subjects with Paraesthesia | 12.5%
C=CC(=O)Nc1cc(Nc2nccc(-c3cn(C)c4ccccc34)n2)c(OC)cc1N(C)CCN(C)C | storage stability | human dried blood spot | 2 h, on ice, LQC level | – | recovery | 98.1%
CC(C)(C(=O)N1CCOc2c(C#N)cncc2C1)C(F)F | – | human, both sexes, plasma | oral, 20 mg twice daily, 14 days, multiple ascending dose | relative to: day 14 over day 1 | accumulation ratio Cmax | 1.71
N#C[C@@]1(c2ccc3c(N)ncnn23)O[C@H](CO)[C@@H](O)[C@H]1O | plasma protein binding | mouse plasma | 10 µM, time not given | – | recovery | 101%
C[C@@H](Oc1ccc(S(C)(=O)=O)cc1C(=O)N1C[C@@H]2C[C@]2(c2cc(C(F)(F)F)on2)C1)C(F)(F)F | – | young humans, plasma | oral, 75 mg single dose, geometric mean | – | AUC(0-72 h) | 23.4 µM·h
C[C@H](Oc1ccc(Br)cc1-c1ccon1)C(=O)O | – | human, plasma | 400 mg once daily, day 10 | relative to: day 1 | accumulation ratio (Cmax) | 0.811
CC1(C)C(/C=C/C2=C(Cl)C(=C/C=C3\N(CCCCCC(=O)O)c4ccccc4C3(C)C)/CCC2)=[N+](CCCCCC(=O)O)c2ccccc21 | – | water | – | – | emission maximum | 795 nm
COc1ccccc1NC(=O)CSc1nnc(-c2ccccc2Cl)n1-c1ccccc1 | – | octanol/buffer | pH 11, known kinase inactives set | – | logP | 3.98
C[C@@H](N)C1CCN(S(=O)(=O)c2cccc3cnccc23)CC1 | – | healthy volunteers, fasted, plasma | oral, 150 mg | – | tmax | 30 min
CCn1ccc2c([C@](O)(c3cnc(C(F)(F)F)c(Cl)c3)C3CC3)n(C)nc2c1=O | – | rat Sprague-Dawley male, blood | intravenous, 1 mg/kg | – | CLint,u | 132 mL/min/kg

Repeated from above:
Structure (SMILES) | assay | system | conditions | how to read | measurement | result
COc1ccccc1NC(=O)CSc1nnc(-c2ccccc2Cl)n1-c1ccccc1 | – | octanol/buffer | pH 11, known kinase inactives set | – | logP | 3.98
C[C@@H](N)C1CCN(S(=O)(=O)c2cccc3cnccc23)CC1 | – | healthy volunteers, fasted, plasma | oral, 150 mg | – | tmax | 30 min
